# Assay results pooled from the literature.
# Compare with care: the assays were run in different laboratories. Numbers after ± are the reported error.
Compound,test,system,setting,scale,endpoint,value
O=C(CCc1ccc(CNC(C(=O)OC2CCCC2)C2CCCCC2)cn1)NO (stereo not drawn),,"human, plasma","oral, 50 mg single dose, geometric mean",,AUC(0-t),186 ng·h/mL
C[N+](C)(C)CC(CC(=O)[O-])OC(=O)CCC(=O)Nc1ccn([C@@H]2O[C@H](CO)[C@@H](O)C2(F)F)c(=O)n1 (stereo partly drawn),,THU-treated rat plasma,"3200.00 ng/mL, -80 to 20 °C, three freeze-thaw cycles, high QC",,measured concentration,3080 ± 54.5 ng/mL
O=c1nc(NO)ccn1[C@@H]1O[C@H](CO)[C@@H](O)[C@H]1O,"Western blot, refers to: CYP2C19","rat, arthritis model, liver","oral, 80 mg/kg twice daily, 5 days",relative to: control group,protein level,0.9 fold
CCCC[C@H](NC(=O)CNC(=O)CNC(=O)CN1CCN(CC(=O)O)CCN(CC(=O)O)CCN(CC(=O)O)CC1)C(=O)N[C@H]1Cc2cn(nn2)CCCC[C@@H](C(N)=O)NC(=O)[C@H](Cc2c[nH]c3ccccc23)NC(=O)[C@H](CCCNC(=N)N)NC(=O)[C@@H](Cc2ccccc2)NC(=O)[C@H](Cc2c[nH]cn2)NC1=O,,"SCID hairless mouse, female, urine and feces","intravenous, dose not given, 90 min, with: unlabelled NDP-α-MSH blocking",,excretion,61.7 ± 9%
CC(C)(O)c1ncc([S@](N)(=O)=NC(=O)Nc2c3c(cc4c2CCC4)CCC3)s1,,"healthy human volunteers, plasma","oral, 30 mg once daily, day 14, capsule formulation",,dose-normalised AUC(0-tau),980 ng·h/mL/mg
CCn1cc(/C=C/c2sc3ccccc3[n+]2CC)c2ccccc21,,methanol,,,Stokes shift,65 nm
CCCC[C@H](NC(=O)CNC(=O)CNC(=O)CN1CCN(CC(=O)O)CCN(CC(=O)O)CCN(CC(=O)O)CC1)C(=O)N[C@H]1CC(=O)NCCCC[C@@H](C(N)=O)NC(=O)[C@H](Cc2c[nH]c3ccccc23)NC(=O)[C@H](CCCNC(=N)N)NC(=O)[C@@H](Cc2ccccc2)NC(=O)[C@H](Cc2c[nH]cn2)NC1=O [copper-64 labelled],,"female C57 mouse, B16/F1 melanoma","intravenous, 0.037 MBq, 2 h",relative to: tumour over liver,uptake ratio,0.5
OC1(C(F)(F)F)CCN(c2nc(Nc3ccnc(C(F)(F)F)c3)nc(-c3cccc(C(F)(F)F)n3)n2)C1 (stereo not drawn),,"Sprague-Dawley rat, both sexes, urine and faeces","oral, 10.1 mg/kg, 168 h, with: [14C]-labelled compound",relative to: dose,cumulative excretion of radioactivity,98 ± 1.7%
Cc1ccc(C(C)C)cc1.[C-]#[O+].[C-]#[O+].[C-]#[O+].[Cl-].[Cl-].[Cl-].[Re+].[Ru+2].c1cnc(-c2ncccn2)nc1,cyclic voltammetry,"0.1 M Na2SO4, gold electrode",scan rate 50 mV/s,,redox potential,-0.701 V vs Ag/AgCl
CC1=C(/C=C/C(=O)N2CCN(C(N)=O)CC2)C(C)(C)CCC1,,"mouse female, retina","oral, 120 mg/kg, single dose",,concentration in retina,30 µM
CCCC[C@H](NC(=O)[C@H](CC(C)C)N(C)C(=O)CNC(=O)[C@@H](NC(=O)[C@H](Cc1ccccc1)NC(=O)[C@H](CCCCN)NC(=O)[C@@H](N)CC(=O)O)C(C)C)C(N)=O,,anesthetized Gottingen minipig,"subcutaneous, 30 µg/kg",relative to: baseline,heart rate,0.14 ± 7.12%
CCC1=C(CC)C2=[N+]3C1=Cc1c(CC)c(CC)c4[n]1[Ir-3]31([C]#[N+]c3ccc(OC)cc3)([C]#[N+]c3ccc(OC)cc3)[n]3c(c(CC)c(CC)c3=CC3=[N+]1C(=C4)C(CC)=C3CC)=C2.F[B-](F)(F)F,,DMSO,concentration not given,,DMSO-substituted fraction,~8%
Nc1ncnc2c1nc(-n1nnc3c1CCC1C(CO)C1CC3)n2C1CC(O)C(CO)O1 (mixture of isomers),fluorescence lifetime,methanol,,,fractional contribution τ3,0.19%
N=C(N)NCCC[C@@H]1NC(=O)[C@H](Cc2c[nH]c3ccccc23)NC(=O)[C@@H](CC2CCCCC2)NC(=O)[C@@H]2CCCN2C(=O)[C@@H](NC(=O)CCc2ccccc2)CCCNC1=O,two-compartment model,"C57BL/6J mouse, plasma brain","intravenous, 1 mg/kg single dose",,K21,6.4 h⁻¹
O=C(O)c1cc2cc(O)ccc2n1Cc1ccc(Cl)c(C(F)(F)F)c1,,"male Wistar Hannover rat, serum","oral, 200 mg/kg, single dose, peak range",,ALT,67 to 102 U/L
CCNC(=O)N1CCC(Oc2nc3c(c(=O)n(C)c(=O)n3C)n2Cc2cccc(C)c2)CC1,metabolic stability,"rat, liver microsomes",,,half-life,3 min
CCCC(CCC)NC(=O)c1ccc(OC)c(O)c1,LC-MS,"Sprague-Dawley rats, pooled sexes, plasma","oral, 200 mg/kg of parent drug, 1 h",relative to: total peak area,metabolite peak area,24.3%
Cn1c(=O)oc2ccc(-c3ccc(CC(C#N)NC(=O)C4CNCCCO4)c(F)c3)cc21 (stereo not drawn),refers to: blood triglycerides increased,human volunteers,oral,,treatment-emergent adverse event incidence,37%
CC(C)c1cnc(-c2cc(Cl)ccc2F)cc1Nc1ccncc1C(=O)NC(CO)CO,refers to: Anemia,solid tumour patients,"oral, dose not given, phase I monotherapy",,treatment-related adverse events,19%
Cc1[nH]c(/C=C2\C(=O)Nc3ccc(F)cc32)c(C)c1NC(=O)CCN1CCN(C)CC1,,dog plasma,"40 ng/mL nominal, 30 d, -80 °C, frozen storage",,measured concentration,39.6 ng/mL
CCCC(CCC)NC(=O)c1ccc(OC2OC(C(=O)O)C(O)C(O)C2O)c(O)c1 (stereo not drawn),LC-MS extracted ion chromatogram,"Sprague-Dawley rat, male and female, pooled plasma","oral, 200 mg/kg, 1 h",,peak area,1.52e+06 cps
CCc1cc(Nc2nc(-c3ccc(-n4cnc(C)c4)c(F)c3)cs2)c(C)cc1C,,"human, both sexes, plasma","oral, 100 mg, day 1, multiple dose, geometric mean",,apparent terminal volume (Vz/F),568000 mL
Cc1cc(O)cc(O)c1C(=O)c1c2c3c(c(O)cc(C)c3oc1=O)C(=O)c1c(O)cc(O)cc1-2,,"mouse, bone marrow","intraperitoneal, 100 mg/kg, 30 h",,micronucleated PCEs per 1000 PCEs,12.5 ± 5.26
Cn1ncc2c1N(CCCCNC/C=C/C#N)c1cc(Cl)ccc1CC2.O=C(O)/C=C\C(=O)O,,mouse,"oral, 10 mg/kg",,mean residence time,~6.5 h
CNc1cc(OC)c(Nc2nccc(-c3cn(C4CC4)c4ccccc34)n2)cc1NC(=O)CCSCC(NC(C)=O)C(=O)O (stereo not drawn),"radio-HPLC, co-eluting peaks pooled","human, urine","dose not given, 0 to 96 h, sample holds 4.16% dose",relative to: sample radioactivity,share of radioactivity,1.7%
CC(C)C[C@@H]1NC(=O)[C@@H](Cc2ccccc2)NC(=O)[C@H](CCN)NC(=O)[C@@H](NC(=O)[C@H](CN)NC(=O)[C@@H](NC(=O)C(CCN)c2ccc3ccccc3c2)[C@@H](C)O)CCNC(=O)[C@H]([C@@H](C)O)NC(=O)[C@H](CCN)NC(=O)[C@H](CCN)NC1=O (stereo partly drawn),,"CD-1 mouse male, kidney","subcutaneous, 17.2 mg/kg, 4 h",,tissue concentration,548000 ng/g
COCCOCCOCCOCCC(=O)NCc1cc(CNC(=O)CCOCCOCCOCCOC)cc(-c2cc3cc4nc(c(-c5ccc(CCC(=O)O)cc5)c5[nH]c(cc6nc(c(OC)c2[nH]3)CC6(C)C)cc5-c2cc(CNC(=O)CCOCCOCCOCCOC)cc(CNC(=O)CCOCCOCCOCCOC)c2)CC4(C)C)c1,,water with 5% DMF,room temperature,,Qy absorption maximum,726 nm
CC(C)Cn1c(SCC(=O)N2CCc3ccccc3C2)nc2cc(Cl)ccc2c1=O,metabolic stability,"rat, liver microsomes",1 h,,compound remaining,0.1%
C=CC(=O)Nc1cc(Nc2nccc(-c3cn(C4CC4)c4ccccc34)n2)c(OC)cc1NC,radio-HPLC,"human male, urine","oral, 110 mg, 0 to 96 h, sample holds 4.16% dose",relative to: sample radioactivity,share of radioactivity,1.7%
COc1cc(OC)cc(C2=C3C(C)=C(I)C(/C=C/c4cccs4)=[N+]3[B-](F)(F)n3c(/C=C/c4cccs4)c(I)c(C)c32)c1,,THF,,,Stokes shift,219 cm⁻¹
